Assay results gathered from unrelated publications.
± marks the error that the study gave.
cyp121: Mycocyclosin synthase (cyp121, Mycobacterium tuberculosis, UniProt P9WPP7)

Chains of the proteins cited; added tags and fusions are not shown. A line that says so, or that is headed by a name, gives the form on record, which may keep a tag or linker. Residues count along the entry.
UniProt P9WPP7, whole entry: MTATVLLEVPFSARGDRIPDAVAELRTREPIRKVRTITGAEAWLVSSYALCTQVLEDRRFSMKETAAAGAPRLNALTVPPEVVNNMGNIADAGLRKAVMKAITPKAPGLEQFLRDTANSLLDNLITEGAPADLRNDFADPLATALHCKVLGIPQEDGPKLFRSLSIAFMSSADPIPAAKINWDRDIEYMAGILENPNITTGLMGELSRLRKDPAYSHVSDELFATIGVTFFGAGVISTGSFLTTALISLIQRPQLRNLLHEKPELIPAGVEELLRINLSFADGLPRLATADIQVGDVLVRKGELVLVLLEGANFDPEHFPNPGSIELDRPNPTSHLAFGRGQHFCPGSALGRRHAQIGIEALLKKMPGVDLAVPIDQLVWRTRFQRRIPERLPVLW
UniProt O13683, 805-921 limits assumed: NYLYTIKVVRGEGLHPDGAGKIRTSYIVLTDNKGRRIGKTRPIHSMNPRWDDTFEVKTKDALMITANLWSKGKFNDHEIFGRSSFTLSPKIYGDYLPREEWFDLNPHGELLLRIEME
UniProt P03420, 26-109 partner limits assumed: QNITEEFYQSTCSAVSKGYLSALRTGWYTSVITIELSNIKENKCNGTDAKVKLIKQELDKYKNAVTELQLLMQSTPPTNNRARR
UniProt P03420, 137-513 with tags or gaps I379V/M447V/S155C/S190F/S290C/V207L limits assumed: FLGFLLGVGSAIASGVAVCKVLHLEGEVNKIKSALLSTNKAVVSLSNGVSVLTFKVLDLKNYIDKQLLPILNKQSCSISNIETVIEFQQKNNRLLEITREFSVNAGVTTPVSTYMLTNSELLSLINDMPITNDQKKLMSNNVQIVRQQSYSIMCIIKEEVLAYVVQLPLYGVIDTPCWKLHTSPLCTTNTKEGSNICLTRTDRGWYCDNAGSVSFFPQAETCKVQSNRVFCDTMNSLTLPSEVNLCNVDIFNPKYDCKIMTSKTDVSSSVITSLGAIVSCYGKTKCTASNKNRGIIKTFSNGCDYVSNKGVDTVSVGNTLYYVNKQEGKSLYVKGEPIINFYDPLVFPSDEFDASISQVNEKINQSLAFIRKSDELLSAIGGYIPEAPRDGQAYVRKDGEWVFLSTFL
UniProt Q86U44, whole entry, looked up: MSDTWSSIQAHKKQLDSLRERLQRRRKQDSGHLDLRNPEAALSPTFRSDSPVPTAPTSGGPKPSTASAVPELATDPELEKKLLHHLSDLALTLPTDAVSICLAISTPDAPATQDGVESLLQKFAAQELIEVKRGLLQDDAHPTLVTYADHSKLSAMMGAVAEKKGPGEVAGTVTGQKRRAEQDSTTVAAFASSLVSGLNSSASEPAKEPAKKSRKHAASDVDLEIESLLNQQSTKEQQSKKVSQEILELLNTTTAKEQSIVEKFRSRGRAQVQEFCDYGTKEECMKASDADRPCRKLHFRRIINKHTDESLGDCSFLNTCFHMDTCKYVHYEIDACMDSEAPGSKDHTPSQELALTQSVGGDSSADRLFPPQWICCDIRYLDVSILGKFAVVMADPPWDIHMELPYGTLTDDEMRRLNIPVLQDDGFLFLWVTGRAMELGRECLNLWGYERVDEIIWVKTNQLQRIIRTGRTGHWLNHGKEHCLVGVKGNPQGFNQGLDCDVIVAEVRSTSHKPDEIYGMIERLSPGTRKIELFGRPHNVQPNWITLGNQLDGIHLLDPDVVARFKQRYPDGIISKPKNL
UniProt Q48485, 24-384 limits assumed: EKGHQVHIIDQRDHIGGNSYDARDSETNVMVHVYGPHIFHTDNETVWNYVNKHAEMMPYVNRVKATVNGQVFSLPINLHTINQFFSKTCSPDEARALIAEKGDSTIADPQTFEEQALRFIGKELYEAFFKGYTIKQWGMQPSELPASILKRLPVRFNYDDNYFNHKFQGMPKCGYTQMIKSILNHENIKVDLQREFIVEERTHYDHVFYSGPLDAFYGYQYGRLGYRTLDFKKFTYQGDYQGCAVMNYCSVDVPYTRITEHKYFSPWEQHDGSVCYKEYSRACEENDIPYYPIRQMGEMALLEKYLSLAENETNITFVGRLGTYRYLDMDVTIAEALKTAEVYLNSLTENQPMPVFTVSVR
UniProt Q965W2, 130-405 limits assumed: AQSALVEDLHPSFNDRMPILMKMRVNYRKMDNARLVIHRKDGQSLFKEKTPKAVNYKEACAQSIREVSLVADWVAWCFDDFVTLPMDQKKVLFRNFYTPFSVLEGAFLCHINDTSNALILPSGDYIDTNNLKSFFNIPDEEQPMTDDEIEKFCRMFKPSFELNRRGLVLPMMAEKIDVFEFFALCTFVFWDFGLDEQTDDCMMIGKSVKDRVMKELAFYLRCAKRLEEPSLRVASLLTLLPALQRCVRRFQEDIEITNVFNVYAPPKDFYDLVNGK
UniProt P10378, whole entry: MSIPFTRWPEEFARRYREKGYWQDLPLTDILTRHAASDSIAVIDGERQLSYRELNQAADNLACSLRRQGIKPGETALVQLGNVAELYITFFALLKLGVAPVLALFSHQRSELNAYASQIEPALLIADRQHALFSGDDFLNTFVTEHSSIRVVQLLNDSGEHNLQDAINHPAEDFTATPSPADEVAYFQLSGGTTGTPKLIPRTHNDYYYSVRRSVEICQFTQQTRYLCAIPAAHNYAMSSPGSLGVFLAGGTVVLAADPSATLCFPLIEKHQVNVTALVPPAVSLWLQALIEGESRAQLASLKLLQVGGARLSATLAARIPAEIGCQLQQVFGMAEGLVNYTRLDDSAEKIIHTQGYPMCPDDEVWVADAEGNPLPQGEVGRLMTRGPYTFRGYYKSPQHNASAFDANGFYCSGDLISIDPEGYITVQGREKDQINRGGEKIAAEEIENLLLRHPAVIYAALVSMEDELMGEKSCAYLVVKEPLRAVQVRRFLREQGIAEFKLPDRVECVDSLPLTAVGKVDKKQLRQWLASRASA
UniProt Q5HH38, whole entry: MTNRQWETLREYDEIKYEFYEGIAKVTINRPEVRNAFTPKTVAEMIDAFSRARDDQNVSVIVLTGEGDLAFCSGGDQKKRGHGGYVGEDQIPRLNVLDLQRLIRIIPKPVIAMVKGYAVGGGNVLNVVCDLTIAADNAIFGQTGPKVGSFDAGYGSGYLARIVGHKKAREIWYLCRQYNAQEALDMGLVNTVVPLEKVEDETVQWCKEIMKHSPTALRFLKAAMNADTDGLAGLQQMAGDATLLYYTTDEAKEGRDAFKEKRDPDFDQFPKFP
UniProt O34453, whole entry I218V: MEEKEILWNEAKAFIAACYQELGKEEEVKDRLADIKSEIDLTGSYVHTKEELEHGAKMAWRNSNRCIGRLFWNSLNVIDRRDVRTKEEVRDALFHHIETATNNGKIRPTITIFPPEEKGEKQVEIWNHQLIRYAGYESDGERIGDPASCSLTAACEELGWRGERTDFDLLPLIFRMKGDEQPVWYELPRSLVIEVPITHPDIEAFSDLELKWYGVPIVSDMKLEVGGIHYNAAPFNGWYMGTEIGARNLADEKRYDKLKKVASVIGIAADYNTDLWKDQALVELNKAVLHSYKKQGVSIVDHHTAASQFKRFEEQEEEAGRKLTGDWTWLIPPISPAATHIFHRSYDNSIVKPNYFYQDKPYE
UniProt P31652, whole entry: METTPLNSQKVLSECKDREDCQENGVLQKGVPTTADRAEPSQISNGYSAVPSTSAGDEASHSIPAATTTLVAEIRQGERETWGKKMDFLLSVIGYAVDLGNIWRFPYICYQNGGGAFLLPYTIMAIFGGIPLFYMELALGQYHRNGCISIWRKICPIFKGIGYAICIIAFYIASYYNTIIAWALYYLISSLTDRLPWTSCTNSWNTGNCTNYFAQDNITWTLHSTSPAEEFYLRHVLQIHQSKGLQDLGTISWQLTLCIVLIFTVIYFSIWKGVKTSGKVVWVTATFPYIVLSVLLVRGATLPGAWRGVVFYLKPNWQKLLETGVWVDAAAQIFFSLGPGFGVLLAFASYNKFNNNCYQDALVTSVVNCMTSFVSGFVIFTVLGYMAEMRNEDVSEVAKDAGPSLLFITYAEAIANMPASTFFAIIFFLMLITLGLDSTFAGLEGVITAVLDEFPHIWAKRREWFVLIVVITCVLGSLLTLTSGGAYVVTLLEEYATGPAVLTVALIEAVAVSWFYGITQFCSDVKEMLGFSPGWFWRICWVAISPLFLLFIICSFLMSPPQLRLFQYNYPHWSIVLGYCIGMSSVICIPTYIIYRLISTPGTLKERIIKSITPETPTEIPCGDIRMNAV

| Compound | target | test | test system | setting | Kd |
| --- | --- | --- | --- | --- | --- |
| CCCCCCCC/C=C\CCCCCCCC(=O)OC[C@H](COP(=O)(O)OC[C@H](N)C(=O)O)OC(=O)CCCCCCC/C=C\CCCCCCCC | Uncharacterized protein C11E3.02c, C2 domain (Schizosaccharomyces pombe, UniProt O13683) | liposome binding, liposome co-sedimentation |  | pH 7.4, 23 °C, added: C2 domain 5 µM | ~82000 nM |
| c1cn(Cc2ccc(-c3ccc4sccc4c3)cc2)cn1 | cyp121 | binding |  |  | 1500 ± 460 nM |
| Cc1nc2c[nH]c(/C=C/C=C/c3ccc(N(C)C)cc3)cn-2c1=O | Alpha-synuclein, amplified patient brain aggregates (SNCA, Homo sapiens, UniProt P37840) | binding |  |  | 1120 nM |
| CS(=O)(=O)CCCn1c(Cn2c(=O)n(C3CC3)c3ccncc32)nc2cc(Br)ccc21 | Fusion glycoprotein F0, prefusion DS-Cav1 (Human respiratory syncytial virus A, UniProt P03420, I379V/M447V/S155C/S190F/S290C/V207L) | isothermal titration calorimetry | respiratory syncytial virus A2, PBS with 1% DMSO | 25 °C | 7.8 ± 7.4 nM |
| Cc1cnc(Nc2ccc(N3CCN(C)CC3)cc2)nc1Nc1cccc(NS(=O)(=O)C(C)(C)C)c1 | Bromodomain-containing protein 4, BD1 (BRD4, Homo sapiens, UniProt O60885) |  |  |  | 86 nM |
| O=C(NCc1ccc2cc(CNCC34CC(F)(C3)C4)[nH]c2c1)c1cc(=O)n2ccccc2n1 | METTL3 (Homo sapiens, UniProt Q86U44) | binding, surface plasmon resonance |  |  | 0.022 nM |
| O=C(O)CC1Sc2nnc(-c3cccs3)n2N=C1c1ccc(Cl)cc1 (stereo not drawn) | UDP-galactopyranose mutase (Klebsiella pneumoniae, UniProt Q48485) | binding, fluorescence polarization |  |  | 9000 ± 5000 nM |
| COc1cc(/C=C/c2ccc3cc(O[11CH3])ccc3n2)ccn1 | Alpha-synuclein, fibrils (SNCA, Homo sapiens, UniProt P37840) | fibril binding, homologous radioligand competition |  | 1 h, 37 °C | 21 nM |
| CCC(c1ccc(-c2ccc(O)cc2)c2cccnc12)n1ccnc1 (stereo not drawn) | cyp121 | binding |  |  | 1700 ± 370 nM |
| Cc1ccc(Nc2nc(N)c3ccccc3n2)cc1Cl | Nuclear hormone receptor family member nhr-86 (nhr-86, Caenorhabditis elegans, UniProt Q965W2) | binding, tryptophan fluorescence quenching | purified ligand-binding domain |  | 5530 nM |
| Cc1ccc(C(=O)Nc2cc(Cl)ccc2C(=O)O)cc1S(=O)(=O)Nc1ccc(Cl)c(Cl)c1 | Replication protein A 70 kDa DNA-binding subunit, N-terminal domain (RPA1, Homo sapiens, UniProt P27694) | binding, fluorescence polarisation competition |  | added: FITC-ATRIP probe | 4000 ± 1000 nM |
| O=C(NS(=O)(=O)OC[C@H]1O[C@@H](n2cnc3c(NCc4ccccc4)ncnc32)[C@H](O)[C@@H]1O)c1ccccc1O | Enterobactin synthase component E (Escherichia coli K-12, UniProt P10378) | binding | Escherichia coli |  | 733 ± 45 nM |
| CC(C)(COP(=O)(O)OP(=O)(O)OC[C@H]1O[C@@H](n2cnc3c(N)ncnc32)[C@H](O)[C@@H]1OP(=O)(O)O)[C@@H](O)C(=O)NCCC(=O)NCCSC(CC(=O)c1ccc(Cl)cc1)C(=O)O (stereo partly drawn) | 1,4-dihydroxy-2-naphthoyl-CoA synthase (menB, Staphylococcus aureus, UniProt Q5HH38) | isothermal titration calorimetry |  | 22 °C | 2800 ± 200 nM |
| Nc1ccc2ccc(CCNCCCc3cccc(F)c3)cc2n1 | Nitric oxide synthase oxygenase (Bacillus subtilis, UniProt O34453, I218V) | binding, imidazole displacement |  | pH 7.6, added: 1 mM imidazole | 18000 ± 2000 nM |
| C[C@@H]1CN(C)CCN1c1nc(-c2ccc(F)cc2)cs1 | Slc6a4 (Rattus norvegicus, UniProt P31652) |  | HeLa transfected with Slc6a4, membranes |  | 5 nM |

Some of these lines once more:
| Compound | target | test | test system | setting | Kd |
| --- | --- | --- | --- | --- | --- |
| CCCCCCCC/C=C\CCCCCCCC(=O)OC[C@H](COP(=O)(O)OC[C@H](N)C(=O)O)OC(=O)CCCCCCC/C=C\CCCCCCCC | Uncharacterized protein C11E3.02c, C2 domain (Schizosaccharomyces pombe, UniProt O13683) | liposome binding, liposome co-sedimentation |  | pH 7.4, 23 °C, added: C2 domain 5 µM | ~82000 nM |
